# Published values gathered from unrelated publications.
# Protocols differ between the studies behind these lines. ± marks the error that the study gave.
# Tested at: concentration not given
# lecA: PA-I galactophilic lectin (lecA, Pseudomonas aeruginosa, UniProt Q05097)
# UniProt Q05097, sequence (whole entry, looked up): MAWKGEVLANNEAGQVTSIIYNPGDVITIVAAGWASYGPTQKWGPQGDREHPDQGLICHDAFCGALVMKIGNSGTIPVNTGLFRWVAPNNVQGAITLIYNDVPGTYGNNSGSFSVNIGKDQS
# Histone chaperone ASF1A: Histone chaperone ASF1A (Homo sapiens, UniProt Q9Y294)
# UniProt Q9Y294, sequence (whole entry, looked up): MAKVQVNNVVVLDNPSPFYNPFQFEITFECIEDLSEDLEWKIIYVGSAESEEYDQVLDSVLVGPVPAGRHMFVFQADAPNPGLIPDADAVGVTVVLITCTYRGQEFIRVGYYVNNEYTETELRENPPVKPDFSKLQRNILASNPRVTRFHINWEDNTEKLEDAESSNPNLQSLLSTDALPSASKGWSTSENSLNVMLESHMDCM
# UniProt P12004, sequence (whole entry, looked up): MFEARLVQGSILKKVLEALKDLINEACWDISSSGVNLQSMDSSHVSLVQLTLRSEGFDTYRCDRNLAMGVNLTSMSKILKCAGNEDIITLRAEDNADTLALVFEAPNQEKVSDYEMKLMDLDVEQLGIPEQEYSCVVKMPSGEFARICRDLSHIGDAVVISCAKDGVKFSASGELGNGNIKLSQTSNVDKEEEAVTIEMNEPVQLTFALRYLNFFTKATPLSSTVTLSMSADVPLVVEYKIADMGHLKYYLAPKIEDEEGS
# UniProt P50750, sequence (whole entry, looked up): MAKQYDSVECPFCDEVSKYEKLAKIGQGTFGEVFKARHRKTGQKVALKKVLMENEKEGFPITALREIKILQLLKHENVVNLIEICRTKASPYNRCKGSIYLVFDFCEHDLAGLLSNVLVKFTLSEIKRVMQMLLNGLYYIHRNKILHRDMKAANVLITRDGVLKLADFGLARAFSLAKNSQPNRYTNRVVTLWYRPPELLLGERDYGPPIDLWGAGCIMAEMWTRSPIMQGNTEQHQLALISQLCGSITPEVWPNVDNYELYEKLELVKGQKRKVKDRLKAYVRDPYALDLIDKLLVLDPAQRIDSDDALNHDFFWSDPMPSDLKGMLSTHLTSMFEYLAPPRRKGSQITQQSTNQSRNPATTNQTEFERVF
Compound,target,test,setting,binding stoichiometry
Clc1ccc2ccc3[n+](c2c1)[Ir-3]12([c]4ccccc4-3)([c]3ccccc3-c3ccc4ccc(Cl)cc4[n+]31)[n+]1ccccc1-c1cccc[n+]12.F[P-](F)(F)(F)(F)F,"Cyclin-dependent kinase 9 (CDK9, Homo sapiens, UniProt P50750)",isothermal titration calorimetry,25 °C,1.17 ± 0.05
OC[C@H]1O[C@@H](Oc2ccc(OCc3cn([C@H]4[C@H](O)[C@@H](O)[C@H](c5cn([C@H]6[C@H](O)[C@@H](O)[C@H](n7cc(COc8ccc(O[C@@H]9O[C@H](CO)[C@H](O)[C@H](O)[C@H]9O)cc8)nn7)O[C@@H]6CO)nn5)O[C@@H]4CO)nn3)cc2)[C@H](O)[C@@H](O)[C@H]1O,lecA,isothermal titration calorimetry,25 °C,0.43 ± 0.01
CC[C@H](C)[C@H](NC(=O)[C@H](CCCNC(=N)N)NC(=O)[C@H](CCCNC(=N)N)NC(=O)[C@H](C)NC(=O)[C@H](CC(C)C)NC(=O)[C@H](CCCNC(=N)N)NC(=O)[C@H](C)NC(=O)[C@H](Cc1c[nH]c2ccccc12)NC(=O)[C@H](CCCCN)NC(=O)[C@H](CCC(=O)O)NC(C)=O)C(=O)N[C@@H](C)C(N)=O,Histone chaperone ASF1A,isothermal titration calorimetry,"pH 7.5, 20 °C",1 ± 0.1
COCCOCCOc1cc(-c2cn([C@H]3[C@H](O)[C@@H](O)[C@H](n4cc(-c5ccc(O[C@@H]6O[C@H](CO)[C@H](O)[C@H](O)[C@H]6O)cc5)nn4)O[C@@H]3CO)nn2)c(OCCOCCOC)cc1-c1cn([C@H]2[C@H](O)[C@@H](O)[C@H](n3cc(-c4ccc(O[C@@H]5O[C@H](CO)[C@H](O)[C@H](O)[C@H]5O)cc4)nn3)O[C@@H]2CO)nn1,lecA,ITC,5% DMSO,0.43 ± 0.03
CCCC[C@@H](CNC(=O)N[C@@H](CCC(N)=O)CNC(=O)N[C@@H](CCCNC(=N)N)C(=O)N[C@H](C(=O)N[C@@H](C)C(N)=O)[C@@H](C)CC)NC(=O)NC[C@H](CCCNC(=N)N)NC(=O)NC[C@H](Cc1ccc2ccccc2c1)NC(=O)[C@H](CCCCN)NC(=O)[C@H](CCC(=O)O)NC(C)=O,Histone chaperone ASF1A,isothermal titration calorimetry,"pH 7.5, 20 °C",1.2 ± 0.1
O=C(Cc1ccccc1O)N[C@@H](Cc1cn(CCNC(=O)c2ccc(S[C@@H]3O[C@H](CO)[C@H](O)[C@H](O)[C@H]3O)cc2)nn1)C(=O)NCCO,lecA,isothermal titration calorimetry,,0.9 ± 0.1
CC[C@H](C)[C@H](NC(=O)[C@H](CCCNC(=N)N)NC(=O)NC[C@H](CCC(N)=O)NC(=O)NC[C@H](CC(C)C)NC(=O)NC[C@H](CCCNC(=N)N)NC(=O)NC[C@H](CCc1ccccc1)NC(=O)[C@H](CCCCN)NC(=O)[C@H](CCC(=O)O)NC(C)=O)C(=O)N[C@@H](C)C(N)=O,Histone chaperone ASF1A,isothermal titration calorimetry,"pH 7.5, 20 °C",1 ± 0.1
O=C(COCc1ccccc1)N[C@@H](Cc1cn(CCNC(=O)c2ccc(S[C@@H]3O[C@H](CO)[C@H](O)[C@H](O)[C@H]3O)cc2)nn1)C(=O)NCCO,lecA,isothermal titration calorimetry,,1 ± 0.1
CC[C@H](C)[C@H](NC(=O)[C@H](CCCNC(=N)N)NC(=O)NC[C@H](CCC(N)=O)NC(=O)NC[C@H](CC(C)C)NC(=O)NC[C@H](CCCNC(=N)N)NC(=O)NC[C@H](Cc1ccc2ccccc2c1)NC(=O)[C@H](CCCCN)NC(=O)[C@H](CCC(=O)O)NC(=O)[C@H](CCC(=O)O)NC(=O)[C@@H](NC(=O)[C@H](CO)NC(=O)[C@H](C)NC(C)=O)[C@@H](C)O)C(=O)N[C@@H](C)C(N)=O,Histone chaperone ASF1A,isothermal titration calorimetry,"pH 7.5, 20 °C",1.2 ± 0.2
O=C(COc1ccc(F)cc1)N[C@@H](Cc1cn(CCNC(=O)c2ccc(S[C@@H]3O[C@H](CO)[C@H](O)[C@H](O)[C@H]3O)cc2)nn1)C(=O)NCCO,lecA,isothermal titration calorimetry,,1 ± 0.2
CSCC[C@H](NC(=O)[C@H](CO)NC(=O)[C@@H](NC(=O)[C@H](CCC(N)=O)NC(=O)[C@@H](CCCNC(=N)N)NC(=O)[C@@H](CCCNC(=N)N)NC(=O)[C@@H](CCCCN)NC(=O)[C@@H](CCCNC(=N)N)NC(C)=O)[C@@H](C)O)C(=O)N[C@H](C(=O)N[C@@H](CC(=O)O)C(=O)N[C@@H](Cc1ccccc1)C(=O)N[C@@H](Cc1ccc(O)cc1)C(=O)N[C@@H](Cc1c[nH]cn1)C(=O)N[C@@H](CO)C(=O)N[C@H](CCCCN)C(=O)N[C@H](CCCNC(=N)N)C(=O)N[C@H](CCCNC(=N)N)C(N)=O)[C@@H](C)O,"Proliferating cell nuclear antigen (PCNA, Homo sapiens, UniProt P12004)",isothermal titration calorimetry,"pH 7.4, 25 °C, 400 mM NaCl, added: p21 peptide",0.73 ± 0.01
OC[C@H]1O[C@@H](Oc2ccc(OCCc3cn([C@H]4[C@H](O)[C@@H](O)[C@H](c5cn([C@H]6[C@H](O)[C@@H](O)[C@H](n7cc(CCOc8ccc(O[C@@H]9O[C@H](CO)[C@H](O)[C@H](O)[C@H]9O)cc8)nn7)O[C@@H]6CO)nn5)O[C@@H]4CO)nn3)cc2)[C@H](O)[C@@H](O)[C@H]1O,lecA,isothermal titration calorimetry,25 °C,0.5 ± 0.01
O=C(COCCCc1ccccc1)N[C@@H](Cc1cn(CCNC(=O)c2ccc(S[C@@H]3O[C@H](CO)[C@H](O)[C@H](O)[C@H]3O)cc2)nn1)C(=O)NCCO,lecA,isothermal titration calorimetry,,1
OC[C@H]1O[C@@H](OCc2cn([C@@H]3O[C@H](CO)[C@@H](n4cc(-c5ccc(-c6cn([C@H]7[C@H](O)[C@@H](O)[C@H](n8cc(CO[C@@H]9O[C@H](CO)[C@H](O)[C@H](O)[C@H]9O)nn8)O[C@@H]7CO)nn6)cc5)nn4)[C@H](O)[C@H]3O)nn2)[C@H](O)[C@@H](O)[C@H]1O,lecA,isothermal titration calorimetry,25 °C,0.41 ± 0.09
CC[C@H](C)[C@H](NC(=O)[C@H](CCCNC(=N)N)NC(=O)NC[C@H](CCC(N)=O)NC(=O)NC[C@H](CCc1ccccc1)NC(=O)NC[C@H](CCCNC(=N)N)NC(=O)NC[C@H](Cc1ccc2ccccc2c1)NC(=O)[C@H](CCCCN)NC(=O)[C@H](CCC(=O)O)NC(C)=O)C(=O)N[C@@H](C)C(N)=O,Histone chaperone ASF1A,isothermal titration calorimetry,"pH 7.5, 20 °C",1.4 ± 0.2
OC[C@H]1O[C@@H](Oc2ccc(-c3cn([C@H]4[C@H](O)[C@@H](O)[C@H](c5cn([C@H]6[C@H](O)[C@@H](O)[C@H](n7cc(-c8ccc(O[C@@H]9O[C@H](CO)[C@H](O)[C@H](O)[C@H]9O)cc8)nn7)O[C@@H]6CO)nn5)O[C@@H]4CO)nn3)cc2)[C@H](O)[C@@H](O)[C@H]1O,lecA,isothermal titration calorimetry,25 °C,0.46 ± 0.01
[N-]=[N+]=NCCNC(=O)c1ccc(S[C@@H]2O[C@H](CO)[C@H](O)[C@H](O)[C@H]2O)cc1,lecA,isothermal titration calorimetry,,0.9

# A few entries again:
Compound,target,test,setting,binding stoichiometry
CC[C@H](C)[C@H](NC(=O)[C@H](CCCNC(=N)N)NC(=O)[C@H](CCCNC(=N)N)NC(=O)[C@H](C)NC(=O)[C@H](CC(C)C)NC(=O)[C@H](CCCNC(=N)N)NC(=O)[C@H](C)NC(=O)[C@H](Cc1c[nH]c2ccccc12)NC(=O)[C@H](CCCCN)NC(=O)[C@H](CCC(=O)O)NC(C)=O)C(=O)N[C@@H](C)C(N)=O,Histone chaperone ASF1A,isothermal titration calorimetry,"pH 7.5, 20 °C",1 ± 0.1
